# Measurements collected from several papers.
# Lines come from different studies, so protocols differ. Values joined by “and” are separate records of one study, mostly repeats; a detail may differ. ± gives the spread as reported.
Compound,test,test system,conditions,scale,quantity,result
Cc1ccc([C@@H]2O[C@H](CO)[C@@H](O)[C@H](O)[C@H]2O)cc1Cc1ccc(-c2ccc(F)cc2)s1,,Japanese type 2 diabetes patients,"100 mg, day 1",reference: day 0,"change, mean 24 h, plasma glucose",-19 mg/dL
C[C@@H]1CCC[C@H](n2cnc(-c3cc(Cl)ccc3-n3cc(Cl)nn3)cc2=O)c2cc(ccn2)-c2c(cnn2C(F)F)NC1=O,,pooled normal human plasma,"IC1.5× aPTT, Actin FS reagent",,concentration for aPTT prolongation,70 nM
CC(c1cc2ccccc2s1)N(O)C(N)=O (centres unmarked),item: 14-HDHA,human whole blood,"3 µM, added: Escherichia coli",,amount,1540 ± 366 pg/mL blood
CC(CCc1ccc(O)cc1)NCCc1ccc(O)c(O)c1 (centres unmarked),,anaesthetised instrumented rat,"iv infusion, 1 µg/kg/min, 5 min, first infusion",reference: baseline,mean arterial pressure rise,3%
Cc1cc(F)cc2c(CCC(=O)N[C@@H]3C(=O)NC[C@H]3O)c(-c3ccc(F)cc3)[nH]c12,"proteinuria, item: UACR AUC",APOL1 G2 multicopy mice,"dose not given, 0 to 48 h, added: IFNγ",reference: vehicle,inhibition,95%
CC(C)[C@H](C(=O)Nc1ccc(C(=O)NO)cc1)c1ccccc1,MRI volumetry,"human, left parieto-occipital meningioma","dose not given, day 1143 post-treatment",,tumour volume,0.102 cm³
CCCC(CCC)C(=O)Oc1cccc(C(O)CCN)c1.O=CO (centres unmarked),OCT at 500 µm from nerve head,"Abca4-/-Rdh8-/- mice, photic damage","oral, 20 mg/kg, 7 days, added: 10,000 lx light, 30 min",,ONL thickness,31 µm and 37.6 µm and 30.3 µm and 11.1 µm and 10.7 µm and 36.9 µm
NC(=O)c1cnc2[nH]ccc2c1N[C@@H]1[C@@H]2CC3C[C@H]1C[C@@](O)(C3)C2,flow cytometry,"Japanese healthy men, blood","oral, 10 mg twice daily, 72 h after day 7 dose",reference: baseline,CD8+CD28+ naive T-cell change,-1.87%
CC(C)[C@H](NC(=O)[C@H](Cc1ccc(O)cc1)NC(=O)[C@H](Cc1ccc(O)cc1)NC(=O)[C@@H]1CCCN1C(=O)[C@H](CCC(=O)O)NC(=O)[C@H](CCC(=O)O)NC(=O)[C@H](Cc1c[nH]c2ccccc12)NC(=O)[C@@H]1CCCN1C(=O)[C@@H](NC(=O)[C@H](CCC(N)=O)NC(=O)c1ccc2c(c1)C(=O)OC21c2ccc(O)cc2Oc2cc(O)ccc21)C(C)C)C(=O)N[C@H](C(=O)N[C@@H](CCCCN)C(=O)N[C@@H](CCCCN)C(=O)N[C@@H](CO)C(=O)N[C@@H](CO)C(=O)NCC(=O)NCC(N)=O)C(C)C,surgeon confidence in nerve,"human head and neck surgery, nerves","500 mg, slightly improved",reference: white light,share of responses,28.6%
O=C(O)CNC(=O)Cc1ccccc1,,"ventricular cardiomyocytes, C57BL/6 mouse","dose not given, 0.568 s",,sarcomere length,1.63 µm
NCC(=O)Nc1cncc(-c2nn3c(=O)cc(N4CCNCC4)nc3s2)c1,"ADP-induced platelet aggregation, light transmission aggregometry","human, stable CAD on aspirin, ex vivo platelets","subcutaneous, 0.04 mg/kg, 15 min post-dose, median value, added: ADP 20 µM",,inhibition,53.5%
C=CC(=O)Nc1cc(Nc2nccc(Nc3cc(Cl)c(F)cc3C(C)(C)O)n2)c(OC)cc1N1CC[C@@H](N(C)C)C1,,"human, EGFR exon20ins NSCLC","dose not given, unknown subtype",,confirmed objective response rate,0%
Cc1cc(C)nc(SC2=CS(=O)(=O)c3ccccc32)n1,"CoA-CPM signal reduction, CPM fluorescence thiol",cell-free biochemical,"assay interference counter-screen, added: CoA replacing acetyl-CoA",,IC50,> 125 µM
Cc1cn(-c2ccc3n(c2=O)CCN([C@@H](C)[C@@H]2CC[C@H](c4cc(F)c(Cl)cc4C(F)(F)F)O2)C3=O)cn1,item: Aβ42,"human, cerebrospinal fluid","150 mg single dose, Tmax",reference: placebo-adjusted baseline,change in CSF level,-33.3%
COc1c(Nc2cc(C(F)(F)F)cc(C(F)(F)F)c2)c(=O)c1=O,HPLC-MS,,"pH 10.2, added: 50 mM N-α-acetyl-lysine",,pseudo-first-order rate constant,6.1 h⁻¹
CN(C)C(=O)c1cc2cnc(Nc3ccc(N4CCNCC4)cn3)nc2n1C1CCCC1,"RNA-seq GSEA, item: HALLMARK_MYOGENESIS",MB002 tumour,"concentration not given, in vivo","reference: vehicle, direction not given",normalized enrichment score,-2.19
Cn1cc(Nc2nccc(-c3ccc4c(c3)CN(C3COC3)CC[C@H]4NC(=O)c3cn(C(C)(C)C)nn3)n2)cn1,item: dopamine-DARPP32 in cAMP signaling,"splenic B cells, mice","30 mg/kg, IgD-activated in vivo","reference: vehicle, direction not given",pathway activation z-score,3.77
CC(C)c1ccc(S(=O)(=O)Nc2ccc(-c3nc4ccccc4s3)c(Cl)c2)cc1,"CoA-CPM signal reduction, CPM fluorescence thiol",cell-free biochemical,"assay interference counter-screen, added: CoA replacing acetyl-CoA",,IC50,> 125 µM
Cc1n[nH]c2ccc(-c3cc(OC[C@@H](N)Cc4ccccc4)cnc3-c3ccoc3)cc12,"kinase binding, competitor, MIB/MS competition, item: CMK1",Candida albicans cell lysate,100 nM,reference: DMSO,log2 fold change,0.142
N#Cc1ccc2c(c1)[C@H]1CCCN(C(=O)c3ccc4[nH]cnc4c3)[C@H]1C2,,"human, plasma","240 mg, day 15, 360 h",reference: placebo and baseline,change in 1.5-AHG,1.6%
CO[C@H]1C[C@@H]2CC[C@@H](C)[C@@](O)(O2)C(=O)C(=O)N2CCCC[C@H]2C(=O)O[C@H]([C@H](C)C[C@@H]2CC[C@@H](O)[C@H](OC)C2)CC(=O)[C@H](C)/C=C(\C)[C@@H](O)[C@@H](OC)C(=O)[C@H](C)C[C@H](C)/C=C/C=C/C=C/1C,oral glucose tolerance test,healthy adult horses,"IV, 0.06 mg/kg, 0 min, test 4 h after single dose",,blood glucose,104 mg/dL
CC(=O)Oc1cc2c(s1)CCN(C(C(=O)C1CC1)c1ccccc1F)C2 (centres unmarked),"platelet aggregation, light transmittance aggregometry","human, platelet-rich plasma","dose not given, 15 min, IPA above 80 %, added: TRAP 5 µM",reference: patients,patients with IPA above threshold,0%
O=S(=O)(Nc1ccc(O)c(Br)c1)c1ccccc1,"CoA-CPM signal reduction, CPM fluorescence thiol",cell-free biochemical,"assay interference counter-screen, added: CoA replacing acetyl-CoA",,IC50,> 125 µM
Cc1ncsc1-c1ccc(CNC(=O)[C@@H]2C[C@@H](O)CN2C(=O)[C@@H](NC(=O)C2(C#N)CC2)C(C)(C)C)cc1,flow cytometry,"bone marrow-derived macrophages, UT-/-, mouse",dose not given,,F4/80+ cells,0.04%
COc1cc2cc(-c3ccc(CC(=O)Nc4cc(C(C)(C)C(F)(F)F)no4)cn3)cnc2cc1OC,RECIST v1.1,human RET-altered solid tumours,"dose not given, phase I",,best overall response CR,0%
Cc1ccc(NS(=O)(=O)C2CS(=O)(=O)c3ccccc32)nc1 (centres unmarked),"CoA-CPM signal reduction, CPM fluorescence thiol",cell-free biochemical,"assay interference counter-screen, added: CoA replacing acetyl-CoA",,IC50,> 125 µM
CC(C)NCC(O)c1ccc(O)c(O)c1 (centres unmarked),,"ventricular cardiomyocytes, C57BL/6 mouse","dose not given, 0.468 s",,sarcomere length,1.63 µm
CCCCOc1nc(N)c2c(n1)N(Cc1cccc(CN3CCCC3)c1)CC(=O)N2,,"human, blood","dose not given, 12 h, COBI",,TLR7 mRNA level,increased
CC[C@H](C)/C=C/C(=O)N1C[C@@H](C)C[C@H]1C(=O)N[C@@H](CCC1CCCCC1)C(=O)N[C@H](C(=O)NC(C)(C)C(=O)N[C@@H](CC(C)C)C(=O)N[C@@H](CC(C)C)C(=O)NC(C)(C)C(=O)NC(C)(C)C(=O)NCCC(=O)N[C@@H](C)CN(C)C)[C@H](O)C(C)C,,small unilamellar vesicles,concentration not given,,calcein leakage,32.4%
OC(CCN1CCCCC1)(c1ccccc1)C1CC2C=CC1C2 (centres unmarked),resting-state EEG,healthy elderly humans,"oral, 2 mg, eyes closed, LS mean",,EEG Beta1-power Fz-Cz,2.9 µV²
C[C@H]1C[C@H]2CSC(N)=N[C@@]2(c2nc(NC(=O)c3ccc(OC(F)F)cn3)cs2)CO1,item: Aβ1-40,"healthy adults, plasma","50 mg once daily, day 4",reference: placebo,percent change from baseline,-87%
C[C@H](Oc1ccc(Br)cc1-c1ccon1)C(=O)O,muscle velocity recovery cycles,"human, tibialis anterior muscle","1200 mg single dose, 3.5 h",,relative refractory period,2.98 ms
Cl.N[C@@H](CC1=CCC(O)(c2nncnn2)C=C1)C(=O)O (some centres unmarked),iEDDA cycloaddition,aqueous DMSO 25 %,"37 °C, added: TCO-OH 7.2 mM",,kobs,2.8 s⁻¹
CO[C@H]1CC[C@H](N2C(=O)CNc3ncc(-c4ccc(C(C)(C)O)nc4)nc32)CC1,flow cytometry,"stimulated T cells, human, blood","60 mg single dose, 1.5 h, mean",reference: baseline,p4EBP1 change from baseline,-31.6%
C[C@@H](O)CCOC(=O)C[C@@H](C)O,item: Gly,"human, plasma","60 min, log2-transformed values",,metabolite level,8.12 ± 0.34 µmol/L
O=S1(=O)C=C(Br)c2ccccc21,"CoA-CPM signal reduction, CPM fluorescence thiol",cell-free biochemical,"assay interference counter-screen, added: CoA replacing acetyl-CoA",,IC50,> 125 µM
N#Cc1ccc2c(-c3ccncc3)c(-c3ccc(F)cc3)nn2c1,"kinase binding, competitor, MIB/MS competition, item: NPR1",Candida albicans cell lysate,100 nM,reference: DMSO,log2 fold change,-0.382
CN(C)C(=O)Nc1cccc(-c2ccc(N(C)C)cc2)c1,"qPCR, item: Fasn","high-fat diet-fed mice, liver",dose not given,reference: vehicle-treated obese mice,relative mRNA level,1.37 and 1.03 and 0.703 and 1.19 and 0.7

# A few entries again:
Compound,test,test system,conditions,scale,quantity,result
CC(C)[C@H](C(=O)Nc1ccc(C(=O)NO)cc1)c1ccccc1,MRI volumetry,"human, left parieto-occipital meningioma","dose not given, day 1143 post-treatment",,tumour volume,0.102 cm³
CCCC(CCC)C(=O)Oc1cccc(C(O)CCN)c1.O=CO (centres unmarked),OCT at 500 µm from nerve head,"Abca4-/-Rdh8-/- mice, photic damage","oral, 20 mg/kg, 7 days, added: 10,000 lx light, 30 min",,ONL thickness,31 µm and 37.6 µm and 30.3 µm and 11.1 µm and 10.7 µm and 36.9 µm
NC(=O)c1cnc2[nH]ccc2c1N[C@@H]1[C@@H]2CC3C[C@H]1C[C@@](O)(C3)C2,flow cytometry,"Japanese healthy men, blood","oral, 10 mg twice daily, 72 h after day 7 dose",reference: baseline,CD8+CD28+ naive T-cell change,-1.87%
CC(C)[C@H](NC(=O)[C@H](Cc1ccc(O)cc1)NC(=O)[C@H](Cc1ccc(O)cc1)NC(=O)[C@@H]1CCCN1C(=O)[C@H](CCC(=O)O)NC(=O)[C@H](CCC(=O)O)NC(=O)[C@H](Cc1c[nH]c2ccccc12)NC(=O)[C@@H]1CCCN1C(=O)[C@@H](NC(=O)[C@H](CCC(N)=O)NC(=O)c1ccc2c(c1)C(=O)OC21c2ccc(O)cc2Oc2cc(O)ccc21)C(C)C)C(=O)N[C@H](C(=O)N[C@@H](CCCCN)C(=O)N[C@@H](CCCCN)C(=O)N[C@@H](CO)C(=O)N[C@@H](CO)C(=O)NCC(=O)NCC(N)=O)C(C)C,surgeon confidence in nerve,"human head and neck surgery, nerves","500 mg, slightly improved",reference: white light,share of responses,28.6%
O=C(O)CNC(=O)Cc1ccccc1,,"ventricular cardiomyocytes, C57BL/6 mouse","dose not given, 0.568 s",,sarcomere length,1.63 µm
NCC(=O)Nc1cncc(-c2nn3c(=O)cc(N4CCNCC4)nc3s2)c1,"ADP-induced platelet aggregation, light transmission aggregometry","human, stable CAD on aspirin, ex vivo platelets","subcutaneous, 0.04 mg/kg, 15 min post-dose, median value, added: ADP 20 µM",,inhibition,53.5%
